Measured values collected from several papers.
Lines come from different studies, so protocols differ. ± gives the spread as reported.
PROK: Proteinase K (PROK, Engyodontium album, UniProt P06873)
CYP2E1: Cytochrome P450 2E1 (CYP2E1, Homo sapiens, UniProt P05181)
CYP1A2: Cytochrome P450 1A2 (CYP1A2, Homo sapiens, UniProt P05177)

Under “ln rate constant ratio”, `CC[C@H](C)[C@H](NC(=O)[C@H](CC(=O)N(CCOCCOCCOCCOC)CCOCCOCCOCCOC)NC(=O)[C@H](CC(N)=O)NC(=O)[C@H](Cc1ccccc1)NC(=O)[C@H](Cc1ccc(O)cc1)NC(=O)[C@H](Cc1ccc(O)cc1)NC(=O)[C@@H](NC(=O)[C@H](CCCNC(=N)N)NC(=O)CNC(=O)[C@H](CO)NC(=O)[C@H](CO)NC(=O)[C@H](CCCNC(=N)N)NC(=O)[C@H](CO)NC(=O)[C@H](CCSC)NC(=O)[C@H](CCCNC(=N)N)NC(=O)[C@H](CCCCN)NC(=O)[C@H](CCC(=O)O)NC(=O)[C@H](Cc1c[nH]c2ccccc12)NC(=O)CNC(=O)[C@@H]1CCCN1C(=O)[C@@H]1CCCN1C(=O)[C@H](CC(C)C)NC(=O)[C@@H](N)CCCCN)C(C)C)C(=O)N[C@H](C(=O)N[C@@H](CC(N)=O)C(=O)N[C@@H](C)C(=O)N[C@@H](CO)C(=O)N[C@@H](CCC(N)=O)C(=O)N[C@@H](Cc1ccccc1)C(=O)N[C@@H](CCC(=O)O)C(=O)N[C@@H](CCCNC(=N)N)C(=O)N1CCC[C@H]1C(=O)N[C@@H](CO)C(=O)NCC(=O)O)[C@@H](C)O` is recorded as 1 ± 0.5 (PROK; proteolysis, substrate, HPLC; room temperature; relative to: PEGylated over non-PEGylated variant, negative = more stable).
With `Oc1c(Br)cccc1Br` the IC50 was 29 µM (CYP2E1; p-nitrophenol hydroxylation, inhibitor; 10 min, together with: p-nitrophenol 100 µM).
`CC[C@H](C)[C@H](NC(=O)[C@H](CO)NC(=O)[C@H](Cc1ccc(O)cc1)NC(=O)[C@H](CC(=O)O)NC(=O)[C@H](CO)NC(=O)[C@@H](NC(=O)[C@H](Cc1ccccc1)NC(=O)[C@@H](NC(=O)CNC(=O)[C@H](CCC(=O)O)NC(=O)N(C)NC(=O)[C@@H](N)Cc1ccc(O)cc1)[C@@H](C)O)[C@@H](C)CC)C(=O)N[C@@H](C)C(=O)N[C@@H](CCSC)C(=O)N[C@@H](CC(=O)O)C(=O)N[C@@H](CCCCN)C(=O)N[C@H](C(=O)N[C@@H](Cc1c[nH]cn1)C(=O)N[C@@H](CCC(N)=O)C(=O)N[C@@H](CCC(N)=O)C(=O)N[C@@H](CC(=O)O)C(=O)N[C@@H](Cc1ccccc1)C(=O)N[C@H](C(=O)N[C@@H](CC(N)=O)C(=O)N[C@@H](Cc1c[nH]c2ccccc12)C(=O)N[C@@H](CC(C)C)C(=O)N[C@@H](CC(C)C)C(=O)N[C@@H](C)C(=O)N[C@@H](CCC(N)=O)C(=O)N[C@@H](CCCCN)C(=O)NCC(=O)N[C@@H](CCCCN)C(=O)N[C@@H](CCCCN)C(=O)N[C@@H](CC(N)=O)C(=O)N[C@@H](CC(=O)O)C(=O)N[C@@H](Cc1c[nH]c2ccccc12)C(=O)N[C@@H](CCCCN)C(=O)N[C@@H](Cc1c[nH]cn1)C(=O)N[C@@H](CC(N)=O)C(=O)N[C@H](C(=O)N[C@H](C(=O)N[C@@H](CCC(N)=O)C(=O)O)[C@@H](C)O)[C@@H](C)CC)C(C)C)[C@@H](C)CC`: “EC50 fold shift” 1 (Gastric inhibitory polypeptide receptor (GIPR, Homo sapiens, UniProt P48546); luciferase reporter gene; overnight, 37 °C, together with: DPP4; relative to: EC50 with over without DPP4).
The half-life of `O=P([O-])([O-])Oc1ccc(-c2cc(=S)ss2)cc1.[Na+].[Na+]` is reported as less than 5 s (Intestinal-type alkaline phosphatase (ALPI, Bos taurus, UniProt P19111); enzymatic hydrolysis, substrate; bovine intestinal mucosa enzyme; 300 µM, pH 7.4, 37 °C).
For `CC[C@H](C)[C@@H]1NC(=O)[C@H](C(C)C)NC(=O)[C@H](C(C)C)NC(=O)[C@H](CC(C)C)NC(=O)C[C@@H](C(=O)N[C@@H](Cc2c[nH]c3ccccc23)C(=O)N[C@@H](CC(N)=O)C(=O)N[C@@H](C)C(=O)N2CCC[C@H]2C(=O)NCC(=O)N[C@@H](Cc2c[nH]c3ccccc23)C(=O)N[C@@H](Cc2ccccc2)C(=O)O)NC(=O)[C@H](C)NC(=O)[C@H](CCC(N)=O)NC(=O)[C@H](C(C)C)NC1=O`, proteolytic stability read “stable” (carboxypeptidase Y; 12 h, pH 6.0, 28 °C).
`CNC(=O)Oc1cc(C)c(S(C)(=O)=O)c(C)c1` gave an inhibition of 15.3% (CYP1A2; inhibitor; human liver microsomes; 10 µM, pH 7.4, together with: phenacetin).
Under “ln rate constant ratio”, `CC[C@H](C)[C@H](NC(=O)[C@H](Cc1ccc(OCc2cn(CCOCCOCCOCCOC)nn2)cc1)NC(=O)[C@H](CC(N)=O)NC(=O)[C@H](Cc1ccccc1)NC(=O)[C@H](Cc1ccc(O)cc1)NC(=O)[C@H](Cc1ccc(O)cc1)NC(=O)[C@@H](NC(=O)[C@H](CCCNC(=N)N)NC(=O)CNC(=O)[C@H](CO)NC(=O)[C@H](CO)NC(=O)[C@H](CCCNC(=N)N)NC(=O)[C@H](CO)NC(=O)[C@H](CCSC)NC(=O)[C@H](CCCNC(=N)N)NC(=O)[C@H](CCCCN)NC(=O)[C@H](CCC(=O)O)NC(=O)[C@H](Cc1c[nH]c2ccccc12)NC(=O)CNC(=O)[C@@H]1CCCN1C(=O)[C@@H]1CCCN1C(=O)[C@H](CC(C)C)NC(=O)[C@@H](N)CCCCN)C(C)C)C(=O)N[C@H](C(=O)N[C@@H](CC(N)=O)C(=O)N[C@@H](C)C(=O)N[C@@H](CO)C(=O)N[C@@H](CCC(N)=O)C(=O)N[C@@H](Cc1ccccc1)C(=O)N[C@@H](CCC(=O)O)C(=O)N[C@@H](CCCNC(=N)N)C(=O)N1CCC[C@H]1C(=O)N[C@@H](CO)C(=O)NCC(=O)O)[C@@H](C)O` is recorded as -1.3 ± 0.4 (PROK; proteolysis, substrate, HPLC; room temperature; relative to: PEGylated over non-PEGylated variant, negative = more stable).
Under “maximum adsorption capacity”, `CCCCCCCCCCCCCCCC(=O)Nc1nc2ccccc2c2c1ncn2CC(C)C` is recorded as 455 ± 16.9 mg/g (SERPINB14 (Gallus gallus, UniProt P01012)).
`CNC(=O)Oc1cc(C)c([S+](C)[O-])c(C)c1` (stereo not shown) gave an inhibition of 1.52% (CYP1A2; inhibitor; human liver microsomes; 2 µM, pH 7.4, together with: phenacetin).
For `[64Cu+2].c1ccc(CNCc2ccc(CN3CCCNCCNCCCNCC3)cc2)nc1`, the tissue uptake was 3.32 ± 0.14 %ID/g (CXCR4; NOD/SCID mouse, U87 xenografts, small intestine; 90 min).
`CC[C@@H]1CN2CCc3c([nH]c4cccc(OC)c34)[C@@H]2C[C@@H]1/C(=C\OC)C(=O)OC` gave a remaining substrate of 96% (CYP1A2; substrate; recombinant human enzyme; 2 µM, 60 min, pH 7.4).
`Cc1cc(Br)c(O)c(Br)c1` has a Ki of 14 µM (CYP2E1; p-nitrophenol hydroxylation, noncompetitive inhibitor, calculated from IC50; baculosomes).
`CC[C@H](C)[C@H](NC(=O)[C@H](CCn1cc(COCCOCCOCCOC)nn1)NC(=O)[C@H](CC(N)=O)NC(=O)[C@H](Cc1ccccc1)NC(=O)[C@H](Cc1ccc(O)cc1)NC(=O)[C@H](Cc1ccc(O)cc1)NC(=O)[C@@H](NC(=O)[C@H](CCCNC(=N)N)NC(=O)CNC(=O)[C@H](CO)NC(=O)[C@H](CO)NC(=O)[C@H](CCCNC(=N)N)NC(=O)[C@H](CO)NC(=O)[C@H](CCSC)NC(=O)[C@H](CCCNC(=N)N)NC(=O)[C@H](CCCCN)NC(=O)[C@H](CCC(=O)O)NC(=O)[C@H](Cc1c[nH]c2ccccc12)NC(=O)CNC(=O)[C@@H]1CCCN1C(=O)[C@@H]1CCCN1C(=O)[C@H](CC(C)C)NC(=O)[C@@H](N)CCCCN)C(C)C)C(=O)N[C@H](C(=O)N[C@@H](CC(N)=O)C(=O)N[C@@H](C)C(=O)N[C@@H](CO)C(=O)N[C@@H](CCC(N)=O)C(=O)N[C@@H](Cc1ccccc1)C(=O)N[C@@H](CCC(=O)O)C(=O)N[C@@H](CCCNC(=N)N)C(=O)N1CCC[C@H]1C(=O)N[C@@H](CO)C(=O)NCC(=O)O)[C@@H](C)O`: “ln rate constant ratio” 0.6 ± 0.4 (PROK; proteolysis, substrate, HPLC; room temperature; relative to: PEGylated over non-PEGylated variant, negative = more stable).
`CCCS(=O)(=O)c1ccc2[nH]c(NC(=O)OC)nc2c1` gave an inhibition of 7.84% (CYP1A2; inhibitor; human liver microsomes; 10 µM, pH 7.4, together with: phenacetin).
`CC[C@H](C)[C@H](NC(=O)[C@H](Cc1c[nH]cn1)NC(=O)[C@H](CC(N)=O)NC(=O)[C@H](Cc1ccccc1)NC(=O)[C@H](Cc1ccc(O)cc1)NC(=O)[C@H](Cc1ccc(O)cc1)NC(=O)[C@@H](NC(=O)[C@H](CCCNC(=N)N)NC(=O)CNC(=O)[C@H](CO)NC(=O)[C@H](CO)NC(=O)[C@H](CCCNC(=N)N)NC(=O)[C@H](CO)NC(=O)[C@H](CCSC)NC(=O)[C@H](CCCNC(=N)N)NC(=O)[C@H](CCCCN)NC(=O)[C@H](CCC(=O)O)NC(=O)[C@H](Cc1c[nH]c2ccccc12)NC(=O)CNC(=O)[C@@H]1CCCN1C(=O)[C@@H]1CCCN1C(=O)[C@H](CC(C)C)NC(=O)[C@@H](N)CCCCN)C(C)C)C(=O)N[C@@H](CCC(=O)NCCOCCOCCOCCOC)C(=O)N[C@@H](CC(N)=O)C(=O)N[C@@H](C)C(=O)N[C@@H](CO)C(=O)N[C@@H](CCC(N)=O)C(=O)N[C@@H](Cc1ccccc1)C(=O)N[C@@H](CCC(=O)O)C(=O)N[C@@H](CCCNC(=N)N)C(=O)N1CCC[C@H]1C(=O)N[C@@H](CO)C(=O)NCC(=O)O`: “ln rate constant ratio” -0.2 ± 0.3 (PROK; proteolysis, substrate, HPLC; room temperature; relative to: PEGylated over non-PEGylated variant, negative = more stable).
`CC[C@@H]1CN2CCc3c([nH]c4cccc(OC)c34)[C@@H]2C[C@@H]1/C(=C\OC)C(=O)OC` has an IC50 of greater than 100 µM (UDP-glucuronosyltransferase, human; 4-MU glucuronidation, inhibitor; human liver microsomes; 30 min, pH 7.4, together with: 4-methylumbelliferone 100 µM).

A few entries again:
Under “ln rate constant ratio”, `CC[C@H](C)[C@H](NC(=O)[C@H](CC(=O)N(CCOCCOCCOCCOC)CCOCCOCCOCCOC)NC(=O)[C@H](CC(N)=O)NC(=O)[C@H](Cc1ccccc1)NC(=O)[C@H](Cc1ccc(O)cc1)NC(=O)[C@H](Cc1ccc(O)cc1)NC(=O)[C@@H](NC(=O)[C@H](CCCNC(=N)N)NC(=O)CNC(=O)[C@H](CO)NC(=O)[C@H](CO)NC(=O)[C@H](CCCNC(=N)N)NC(=O)[C@H](CO)NC(=O)[C@H](CCSC)NC(=O)[C@H](CCCNC(=N)N)NC(=O)[C@H](CCCCN)NC(=O)[C@H](CCC(=O)O)NC(=O)[C@H](Cc1c[nH]c2ccccc12)NC(=O)CNC(=O)[C@@H]1CCCN1C(=O)[C@@H]1CCCN1C(=O)[C@H](CC(C)C)NC(=O)[C@@H](N)CCCCN)C(C)C)C(=O)N[C@H](C(=O)N[C@@H](CC(N)=O)C(=O)N[C@@H](C)C(=O)N[C@@H](CO)C(=O)N[C@@H](CCC(N)=O)C(=O)N[C@@H](Cc1ccccc1)C(=O)N[C@@H](CCC(=O)O)C(=O)N[C@@H](CCCNC(=N)N)C(=O)N1CCC[C@H]1C(=O)N[C@@H](CO)C(=O)NCC(=O)O)[C@@H](C)O` is recorded as 1 ± 0.5 (PROK; proteolysis, substrate, HPLC; room temperature; relative to: PEGylated over non-PEGylated variant, negative = more stable).
With `Oc1c(Br)cccc1Br` the IC50 was 29 µM (CYP2E1; p-nitrophenol hydroxylation, inhibitor; 10 min, together with: p-nitrophenol 100 µM).
